{"data": "Results of several laboratories", "note": "Each numbered part is a random draw from the data of one study; scales do not carry over between parts. Changes are numbered by the printed parent chain.", "UniProt Q9ZSY8, sequence (whole entry, looked up)": "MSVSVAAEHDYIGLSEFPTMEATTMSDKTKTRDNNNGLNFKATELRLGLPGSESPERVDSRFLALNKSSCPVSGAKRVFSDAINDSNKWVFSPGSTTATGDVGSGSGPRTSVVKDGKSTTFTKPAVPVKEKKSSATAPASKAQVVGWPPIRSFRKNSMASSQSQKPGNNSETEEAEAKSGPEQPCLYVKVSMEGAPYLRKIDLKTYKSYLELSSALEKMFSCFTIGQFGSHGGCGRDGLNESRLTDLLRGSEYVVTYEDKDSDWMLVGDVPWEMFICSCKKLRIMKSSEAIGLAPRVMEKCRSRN", "UniProt Q38830, sequence (whole entry, looked up)": "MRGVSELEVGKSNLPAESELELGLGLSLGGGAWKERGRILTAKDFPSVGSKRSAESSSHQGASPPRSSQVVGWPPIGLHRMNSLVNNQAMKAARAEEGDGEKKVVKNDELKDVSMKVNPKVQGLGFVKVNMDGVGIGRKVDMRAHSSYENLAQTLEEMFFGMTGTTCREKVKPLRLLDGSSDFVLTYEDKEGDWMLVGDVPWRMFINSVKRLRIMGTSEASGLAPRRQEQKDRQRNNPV", "UniProt Q38828, sequence (whole entry, looked up)": "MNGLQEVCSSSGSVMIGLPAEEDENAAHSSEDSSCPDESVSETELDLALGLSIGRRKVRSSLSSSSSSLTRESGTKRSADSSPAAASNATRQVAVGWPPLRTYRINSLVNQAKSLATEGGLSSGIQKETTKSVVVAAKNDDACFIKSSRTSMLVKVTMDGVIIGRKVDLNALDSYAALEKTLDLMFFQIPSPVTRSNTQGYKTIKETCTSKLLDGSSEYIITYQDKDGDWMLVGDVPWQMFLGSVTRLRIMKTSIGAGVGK", "UniProt Q9XFM0, sequence (whole entry, looked up)": "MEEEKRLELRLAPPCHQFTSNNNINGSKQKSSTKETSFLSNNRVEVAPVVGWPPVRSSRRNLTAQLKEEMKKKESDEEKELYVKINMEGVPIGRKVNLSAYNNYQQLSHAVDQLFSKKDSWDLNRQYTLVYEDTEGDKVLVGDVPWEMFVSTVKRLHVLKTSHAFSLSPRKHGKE"}
{"data": "Set 1", "target": "RNA binding protein fox-1 homolog 2, RRM domain, GST-SBP tag (RBFOX2, Homo sapiens, UniProt O43251-10, residues 100-194)", "method": "RNA Bind-n-Seq", "molecule type": "RNA", "sample": "in vitro", "tested at": "365 nM", "setting": "natural RNA segment, single round, ends assumed", "relative to": "no-protein control", "reading": "higher = stronger binding", "Construct (chain)": "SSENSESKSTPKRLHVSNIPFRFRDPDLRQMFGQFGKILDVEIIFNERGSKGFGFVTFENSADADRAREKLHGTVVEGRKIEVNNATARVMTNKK"}
{"Oligonucleotide": "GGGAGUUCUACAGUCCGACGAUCCAGGCUGGAGAAAUGGGAGCCCAGAGAGUGGAGAGUGAUUGGGAGUUACUUGUUCAUUCAAAUCUUGCACCCCCCCCCCCAAGGUUCUCAUUGUUGGAGAGGGUGGGGGAUGGAAUUCUCGGGUGCCAA", "RBNS enrichment (R)": 1.44}
{"Oligonucleotide": "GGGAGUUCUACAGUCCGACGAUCUGGGAGGAAUCCCUGAAGACCUGCAUCCCCUAAGUGAGGACCCUACAGGGUACCUUGUGCUCUGCCCCCAGACCCAUAGCCUUAGCAGUGGGCCAACUACAAUCCUCAUCUGGAAUUCUCGGGUGCCAA", "RBNS enrichment (R)": 0.504}
{"Oligonucleotide": "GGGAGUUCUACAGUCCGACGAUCGCAUUUUGUAACGUCCAGUGUGGCGUUGAAUAGAUGUGUAUUUCCUCCCCUGCAGAAAAUAAGCACAGAAAAUUAUAAUGUAGGUGAUCGGAGCUCUUUCCUUUGAUAGAUGGAAUUCUCGGGUGCCAA", "RBNS enrichment (R)": 0.439}
{"Oligonucleotide": "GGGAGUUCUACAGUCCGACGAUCUCUAGUUGCCAAUUGUCUUCAGAGUGUGAAAAUUUAAAUCCUUCUUGAAGUAUCUUUCGUGAGAGUAGUAUGGAAGUAAAACGUUCUCAUAUCAGGAGGAUGUCAUUUGUUGGAAUUCUCGGGUGCCAA", "RBNS enrichment (R)": 0.398}
{"Oligonucleotide": "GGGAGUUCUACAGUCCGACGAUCUCCUCGCCAGGGAUCUGGGUGGGACAGUCACACCCACGGCCUGCUACCCACCAGGUUGUACUUAACGCAAUCAGAAGGGGUUCAUGGCAAUAUAACAGUUAAUGAACUUGUGGAAUUCUCGGGUGCCAA", "RBNS enrichment (R)": 0.273}
{"Oligonucleotide": "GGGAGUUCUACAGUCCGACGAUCCAGGAGCCAAAUUUGUAAUUUAGAGACACUUAAUUUUGUUAAUCCUGUCUGGGACACUUAAGUAACAUCUAAAGCAUUAUUGCUUUAGAAUGUUCAAAUAAAAUUUCCUGUGGAAUUCUCGGGUGCCAA", "RBNS enrichment (R)": 0.436}
{"Oligonucleotide": "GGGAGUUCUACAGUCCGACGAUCGCCUUCCCUACCGGCCAUUUCCUUUAGCUCCCUCAAGGCUCUUGGGGAGUUUGCUUGGGGCUCUAAGUCUGGGGUAGGUUCUGGGCCUUCACAGAAUGAUGGCAUCUUCCUGGAAUUCUCGGGUGCCAA", "RBNS enrichment (R)": 0.487}
{"Oligonucleotide": "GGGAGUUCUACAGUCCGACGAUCGUAGGUGACUCUGCAGCCUGCCAGCGCCCGCCCUCUUUCUACACAGCAGAGUGUGCAUGGCAAGGAAAUGAGUCACCUCCUUGGGGGAUGGUGCUGUUUUUAUGAAAACCUGGAAUUCUCGGGUGCCAA", "RBNS enrichment (R)": 0.35}
{"Oligonucleotide": "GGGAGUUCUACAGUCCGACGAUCAAAGCUCCCAGCAUAUUUAGAUAAUAGGGCAGGGGAAGCACCCUCUUUCUUUCUAGACUGGAUUAUGCUCACAUGCUCCCUUGCCCUGACAUUUUUGUAAAUUCUGUGCCUGGAAUUCUCGGGUGCCAA", "RBNS enrichment (R)": 1.04}
{"Oligonucleotide": "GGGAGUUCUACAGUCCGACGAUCCAUUUCACUGAUUGGAAUGUGGAAAUGGAAAAGGAAUUUAGGAUGUGCAUUUUCACCUGAGGUUUCCCUGCAUCCCUGCAGUGCCAAAGCCCCACCUUCAGGGACCACCUUGGAAUUCUCGGGUGCCAA", "RBNS enrichment (R)": 2.74}
{"Oligonucleotide": "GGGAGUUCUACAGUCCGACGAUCAACCCUAUGAAGAGUAACAGUGUAGACCAGACUGCCUCUCUCAGAUAUGUGCCUGAUAUUUUGUGGAUACCUCCCCUGCACUGGCAAAACACUAUGCUUUUGGGUGUUAGUGGAAUUCUCGGGUGCCAA", "RBNS enrichment (R)": 0.46}
{"Oligonucleotide": "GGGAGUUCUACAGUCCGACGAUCUCUGUUUUUGUUAAUAUACCCAAAAUUGUAUAUAUCUUAUAACUGUUUUAGAAAUGGCACAUAGGCUUCUAUUACCUGUUAGGUGGAGAUUUUGUAUGUAAAUGUGUUAGUGGAAUUCUCGGGUGCCAA", "RBNS enrichment (R)": 0.998}
{"data": "Set 2", "target": "ABI1, truncated, D143A, DHFR fusion (Arabidopsis thaliana)", "method": "DHFR PCA, deep sequencing", "sample": "yeast", "setting": "methotrexate growth selection, single substitutions", "added": "(+)-ABA 0.11 µM", "relative to": "wild-type fitted maximum", "reading": "higher = stronger binding", "starting sequence": "PYL1, truncated, DHFR fusion (Arabidopsis thaliana); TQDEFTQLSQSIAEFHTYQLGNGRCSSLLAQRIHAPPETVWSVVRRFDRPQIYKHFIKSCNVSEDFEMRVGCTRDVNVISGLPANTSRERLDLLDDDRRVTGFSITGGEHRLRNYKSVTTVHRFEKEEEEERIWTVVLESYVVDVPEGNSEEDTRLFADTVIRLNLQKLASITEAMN; partner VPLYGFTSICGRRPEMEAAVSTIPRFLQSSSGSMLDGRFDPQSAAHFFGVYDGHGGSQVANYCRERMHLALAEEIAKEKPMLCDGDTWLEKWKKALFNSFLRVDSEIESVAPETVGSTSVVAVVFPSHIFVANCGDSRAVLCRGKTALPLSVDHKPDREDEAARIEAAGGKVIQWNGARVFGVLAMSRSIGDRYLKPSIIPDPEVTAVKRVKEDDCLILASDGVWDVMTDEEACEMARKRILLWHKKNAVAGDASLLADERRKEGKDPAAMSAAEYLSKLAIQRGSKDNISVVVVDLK"}
{"Variant": "D144L", "relative binding score": "-2.9%"}
{"Variant": "Q19A", "relative binding score": "29.3%"}
{"Variant": "E125T", "relative binding score": "44.7%"}
{"Variant": "A30G", "relative binding score": "12.8%"}
{"Variant": "A170L", "relative binding score": "-0.0815%"}
{"Variant": "T6D", "relative binding score": "47.4%"}
{"Variant": "H110G", "relative binding score": "24.9%"}
{"Variant": "T135K", "relative binding score": "-4.15%"}
{"Variant": "I133H", "relative binding score": "26%"}
{"Variant": "T101S", "relative binding score": "0.222%"}
{"Variant": "I33L", "relative binding score": "-1.45%"}
{"Variant": "F5Y", "relative binding score": "35.6%"}
{"Variant": "K116W", "relative binding score": "-4.12%"}
{"Variant": "V44P", "relative binding score": "-2.41%"}
{"Variant": "N77I", "relative binding score": "51.6%"}
{"Variant": "L169G", "relative binding score": "0.0782%"}
{"data": "Set 3", "target": "Eukaryotic initiation factor 4A-I (EIF4A1, Homo sapiens, UniProt P60842, residues 1-406, full length assumed)", "method": "RNA Bind-n-Seq", "molecule type": "RNA", "sample": "in vitro", "tested at": "90 pmol", "setting": "4-mer, random 30-nt RNA, single round", "added": "3 µM DMDA-PatA, 2 mM ADP, 2 mM phosphate", "relative to": "input library", "reading": "higher = stronger binding", "UniProt P60842, sequence (whole entry, looked up)": "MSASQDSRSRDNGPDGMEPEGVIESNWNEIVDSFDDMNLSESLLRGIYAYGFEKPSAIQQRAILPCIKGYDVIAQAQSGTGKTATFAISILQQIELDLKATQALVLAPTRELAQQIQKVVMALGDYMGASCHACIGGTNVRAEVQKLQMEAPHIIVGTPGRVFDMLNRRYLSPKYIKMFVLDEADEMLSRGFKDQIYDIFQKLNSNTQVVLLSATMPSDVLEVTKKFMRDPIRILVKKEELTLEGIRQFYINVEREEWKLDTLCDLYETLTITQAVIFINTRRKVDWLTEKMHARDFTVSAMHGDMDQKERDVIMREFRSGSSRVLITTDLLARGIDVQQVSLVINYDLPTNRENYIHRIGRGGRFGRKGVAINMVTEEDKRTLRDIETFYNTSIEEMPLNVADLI"}
{"Oligonucleotide": "UGGG", "4-mer enrichment [fold]": 1.33}
{"Oligonucleotide": "AGUC", "4-mer enrichment [fold]": 0.701}
{"Oligonucleotide": "CUAC", "4-mer enrichment [fold]": 0.571}
{"Oligonucleotide": "UCCA", "4-mer enrichment [fold]": 0.661}
{"Oligonucleotide": "UCGU", "4-mer enrichment [fold]": 0.667}
{"Oligonucleotide": "GUUU", "4-mer enrichment [fold]": 1.28}
{"Oligonucleotide": "AUCA", "4-mer enrichment [fold]": 0.771}
{"Oligonucleotide": "GCAG", "4-mer enrichment [fold]": 0.895}
{"Oligonucleotide": "GUUG", "4-mer enrichment [fold]": 1.17}
{"Oligonucleotide": "CGAA", "4-mer enrichment [fold]": 1.12}
{"Oligonucleotide": "UCUU", "4-mer enrichment [fold]": 0.691}
{"Oligonucleotide": "AUCG", "4-mer enrichment [fold]": 0.658}
{"Oligonucleotide": "UCAU", "4-mer enrichment [fold]": 0.715}
{"Oligonucleotide": "CCAG", "4-mer enrichment [fold]": 0.703}
{"data": "Set 4", "target": "CCND1, cyclin fold, Cln2 fusion (human)", "method": "yeast growth competition, sequencing", "sample": "yeast", "setting": "weak parent motif", "relative to": "not given", "reading": "higher = stronger binding", "starting sequence": "PLK5 docking peptide (human); IFRKVGQRLLTQC; partner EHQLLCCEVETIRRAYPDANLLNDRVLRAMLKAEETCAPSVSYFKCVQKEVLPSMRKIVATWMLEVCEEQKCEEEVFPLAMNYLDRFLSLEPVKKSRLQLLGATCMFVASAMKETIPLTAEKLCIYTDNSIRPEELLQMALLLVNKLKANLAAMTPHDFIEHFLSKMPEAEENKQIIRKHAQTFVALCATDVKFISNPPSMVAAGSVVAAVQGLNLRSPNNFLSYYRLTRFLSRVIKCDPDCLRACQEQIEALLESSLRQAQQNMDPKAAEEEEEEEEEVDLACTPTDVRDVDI"}
{"Variant": "IFRKVGQRALTQC [L9A]", "normalised enrichment score": 0.58}
{"Variant": "IARKVGQRLLTQC [F2A]", "normalised enrichment score": 0.464}
{"Variant": "IFRKVGQRLATQC [L10A]", "normalised enrichment score": 0.47}
{"Variant": "IFRKAGQRLLTQC [V5A]", "normalised enrichment score": 0.28}
{"Variant": "IFRKVGARLLTQC [Q7A]", "normalised enrichment score": 0.474}
{"Variant": "IFRAVGQRLLTQC [K4A]", "normalised enrichment score": 0.447}
{"Variant": "IFRKVGQRLLTQA [C13A]", "normalised enrichment score": 0.785}
{"data": "Set 5", "Molecule": "B1 (IAA9)", "method": "two-hybrid", "reading": "higher = firmer interaction", "B1": "IAA9 (Arabidopsis thaliana, UniProt Q38827); chain MSPEEELQSNVSVASSSPTSNCISRNTLGGLKEHNYLGLSDCSSVGSSTLSPLAEDDKATISLKATELTLGLPGSQSPARDTELNLLSPAKLDEKPFFPLLPSKDEICSSSQKNNASGNKRGFSDTMDQFAEAKSSVYTEKNWMFPEAAATQSVTKKDVPQNIPKGQSSTTNNSSSPPAAKAQIVGWPPVRSYRKNTLATTCKNSDEVDGRPGSGALFVKVSMDGAPYLRKVDLRSYTNYGELSSALEKMFTTFTLGQCGSNGAAGKDMLSETKLKDLLNGKDYVLTYEDKDGDWMLVGDVPWEMFIDVCKKLKIMKGCDAIGLAAAPRAMEKSKMRA"}
{"partner": "IAA16 (Arabidopsis thaliana, UniProt O24407)", "relative to": "out of 2 tests", "positive tests": 2}
{"partner": "IAA12 (Arabidopsis thaliana, UniProt Q38830)", "relative to": "out of 4 tests", "positive tests": 4}
{"partner": "IAA27 (Arabidopsis thaliana, UniProt Q9ZSY8)", "relative to": "out of 2 tests", "positive tests": 2}
{"partner": "IAA28 (Arabidopsis thaliana, UniProt Q9XFM0)", "relative to": "out of 2 tests", "positive tests": 2}
{"partner": "IAA10 (Arabidopsis thaliana, UniProt Q38828)", "relative to": "out of 2 tests", "positive tests": 2}
{"note": "Excerpt of the above (set 2):"}
{"Variant": "E125T", "relative binding score": "44.7%"}
{"Variant": "A30G", "relative binding score": "12.8%"}
{"Variant": "A170L", "relative binding score": "-0.0815%"}
{"Variant": "T6D", "relative binding score": "47.4%"}
